Published values collected from several papers.
Each numbered part is a random draw from the data of one study; scales do not carry over between parts. Changes are numbered by the printed parent chain.

Series 1 — method: protein-binding microarray; form: double-stranded DNA, one strand shown; sample: in vitro; concentration: 250 nM; setting: 60-bp whole probe; with: salmon DNA 0.4 mg/ml; relative to: random background probes; reading: higher = stronger binding; shared flanks, not repeated: GCCTAGCAC … GTCTTGATTCGCTTGACGCTGCTG
Target: Interferon regulatory factor 7, full length, phosphomimetic (IRF7, Homo sapiens, UniProt Q92985, residues 1-503, S101K/S471D/S472D/S475D/S476D/S477D/S483D/S484D/S487D)
Construct (chain): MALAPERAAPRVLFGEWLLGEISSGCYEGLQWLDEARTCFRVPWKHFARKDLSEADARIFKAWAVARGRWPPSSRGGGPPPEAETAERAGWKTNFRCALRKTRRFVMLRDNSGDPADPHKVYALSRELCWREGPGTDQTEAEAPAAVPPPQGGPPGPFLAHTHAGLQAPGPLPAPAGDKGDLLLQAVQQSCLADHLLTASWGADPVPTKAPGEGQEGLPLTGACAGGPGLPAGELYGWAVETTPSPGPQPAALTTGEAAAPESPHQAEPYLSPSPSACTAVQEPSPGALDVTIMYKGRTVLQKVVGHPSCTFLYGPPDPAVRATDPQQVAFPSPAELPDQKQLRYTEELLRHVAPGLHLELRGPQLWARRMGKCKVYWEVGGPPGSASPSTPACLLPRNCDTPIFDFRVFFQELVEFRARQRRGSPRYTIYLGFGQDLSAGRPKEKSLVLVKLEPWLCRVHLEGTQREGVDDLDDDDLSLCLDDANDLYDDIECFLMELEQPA
Oligonucleotide | log fluorescence [z-score]
GACGGTCTCGTTTTCGGGACGTGCTAG | 6.08
TATAAATTATCTTTAATCCTGTGCTAG | 0.113
GTAGATCTCAGACTGGATTAGTGCTAG | -0.269
TACGGTATCGACACTGGGGACGTGCTA | -0.0568
GACGGTATCCTACTACTGACGTGCTAG | 0.0328
TTAGGACTGGGTTACGGTTAGTGCTAG | 0.96
GTTTTTTGGTTTCTGGTTTAGTGCTAG | 5.73
TCACCTTTATGTCCTGTACTGTGCTAG | 0.475
TAAGGTCTCGGACTGGGTTAGTGCTAG | 0.364
TTGCAGATGACGAAACTGAAGTGCTAG | -0.326
CTAGGTATCGGTCTCGGTTAGTGCTAG | 2.46
TTAGGGATCCTTTTCCTTTAGTGCTAG | 1.37
GACGAACTGGGGTTTCGAGTCGTGCTA | 5.68
TTAGGTCTCCGTATCGGTTAGTGCTAG | 0.376
TTAGGTTACCTTCTCCTTTAGTGCTAG | 0.452
GACGGTATCCATATCCTGACGTGCTAG | 0.365

Series 2 — method: Sort-seq; measured: YFP reporter; sample: E. coli; setting: PhoQ-PhoP variant library; with: 10 µM Mg2+; relative to: high Mg2+ state; reading: higher = stronger signaling
Molecule: PhoQ, residues 284 288 289 292 302 303 AMDMFI
target | fold induction
PhoP, residues 12 14 15 18 19 SHWTV (Escherichia coli, UniProt P23836) | 1.4
PhoP, residues 12 14 15 18 19 QYCSL (Escherichia coli, UniProt P23836) | 0.816
PhoP, residues 12 14 15 18 19 STHWV (Escherichia coli, UniProt P23836) | 1.26

Series 3 — method: DHFR PCA, deep sequencing; sample: yeast; with: (+)-ABA 4.8 µM; relative to: wild-type fitted maximum; reading: higher = stronger binding
Target: ABI1, truncated, D143A, DHFR fusion (Arabidopsis thaliana)
Setting: methotrexate growth selection, single substitutions
Starting sequence: PYL1, truncated, DHFR fusion (Arabidopsis thaliana); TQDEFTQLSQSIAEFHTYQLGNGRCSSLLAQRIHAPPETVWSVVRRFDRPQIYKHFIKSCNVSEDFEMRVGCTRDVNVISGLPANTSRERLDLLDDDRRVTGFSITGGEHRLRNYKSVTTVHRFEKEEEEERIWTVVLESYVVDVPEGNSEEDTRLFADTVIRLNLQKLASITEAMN; partner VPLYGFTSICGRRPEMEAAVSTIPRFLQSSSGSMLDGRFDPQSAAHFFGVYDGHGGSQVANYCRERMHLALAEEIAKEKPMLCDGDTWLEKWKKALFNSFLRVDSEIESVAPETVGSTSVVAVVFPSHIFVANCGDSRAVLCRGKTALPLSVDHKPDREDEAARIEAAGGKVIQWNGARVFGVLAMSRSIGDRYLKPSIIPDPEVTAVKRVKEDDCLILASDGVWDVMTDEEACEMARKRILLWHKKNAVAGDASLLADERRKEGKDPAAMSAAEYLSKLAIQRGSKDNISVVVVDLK
Substitution | relative binding score [%]
E127I | 64.3
N177H | 88.1
E109H | 28.8
Y53C | -3.07
R113W | 17
T119K | 7.96
Q10R | 69.3
L91E | 2.08
C25M | 33.2
V145E | -8.83
D48K | -3.15
F124K | 12.9

Series 4 — target: CCNA2, cyclin fold, Cln2 fusion (human); method: yeast growth competition, sequencing; sample: yeast; setting: strong parent motif; relative to: not given; reading: higher = stronger binding
Starting sequence: CDKN1A docking peptide (human); SKACRRLFGPVDS
Substitution | normalised enrichment score
V11W | 5.8
R6F | 1.38
L7E | -0.15
R5D | -0.749
P10M | 4.8
P10V | 5.07
R6Y | 1.66
C4Q | 4.82
A3D | 0.504
P10C | 5.09
F8D | 0.352

Repeated from above (series 3):
Substitution | relative binding score [%]
T119K | 7.96
V145E | -8.83
Q10R | 69.3
R113W | 17
C25M | 33.2
L91E | 2.08
